Published values of several laboratories.
Parts stem from different laboratories: compare values within a part only.
Sequence of UniProt P10721 (whole entry, looked up): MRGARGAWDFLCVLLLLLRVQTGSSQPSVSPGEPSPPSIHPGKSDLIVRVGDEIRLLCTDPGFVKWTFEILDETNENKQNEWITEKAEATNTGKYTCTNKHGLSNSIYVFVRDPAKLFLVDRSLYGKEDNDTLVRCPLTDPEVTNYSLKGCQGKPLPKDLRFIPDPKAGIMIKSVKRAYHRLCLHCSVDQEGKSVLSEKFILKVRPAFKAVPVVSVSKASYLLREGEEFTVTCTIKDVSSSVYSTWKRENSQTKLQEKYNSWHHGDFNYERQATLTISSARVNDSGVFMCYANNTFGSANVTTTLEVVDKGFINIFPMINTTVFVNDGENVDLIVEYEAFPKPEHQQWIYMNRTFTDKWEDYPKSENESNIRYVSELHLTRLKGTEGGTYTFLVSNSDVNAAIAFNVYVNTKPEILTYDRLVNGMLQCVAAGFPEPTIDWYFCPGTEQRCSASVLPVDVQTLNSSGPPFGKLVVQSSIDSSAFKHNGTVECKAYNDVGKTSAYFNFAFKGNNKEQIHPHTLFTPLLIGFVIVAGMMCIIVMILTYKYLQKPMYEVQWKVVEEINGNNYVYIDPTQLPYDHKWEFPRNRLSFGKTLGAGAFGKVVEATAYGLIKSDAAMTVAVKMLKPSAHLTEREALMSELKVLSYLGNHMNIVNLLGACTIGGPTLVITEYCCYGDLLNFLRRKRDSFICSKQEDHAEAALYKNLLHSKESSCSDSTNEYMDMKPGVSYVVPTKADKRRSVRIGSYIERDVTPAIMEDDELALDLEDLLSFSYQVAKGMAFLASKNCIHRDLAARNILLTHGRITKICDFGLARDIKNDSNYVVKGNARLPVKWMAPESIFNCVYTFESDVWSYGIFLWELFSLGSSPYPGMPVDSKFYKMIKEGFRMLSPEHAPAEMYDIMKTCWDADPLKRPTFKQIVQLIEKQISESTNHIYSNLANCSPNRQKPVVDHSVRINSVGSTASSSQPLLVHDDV
Sequence of UniProt Q00532 (whole entry, looked up): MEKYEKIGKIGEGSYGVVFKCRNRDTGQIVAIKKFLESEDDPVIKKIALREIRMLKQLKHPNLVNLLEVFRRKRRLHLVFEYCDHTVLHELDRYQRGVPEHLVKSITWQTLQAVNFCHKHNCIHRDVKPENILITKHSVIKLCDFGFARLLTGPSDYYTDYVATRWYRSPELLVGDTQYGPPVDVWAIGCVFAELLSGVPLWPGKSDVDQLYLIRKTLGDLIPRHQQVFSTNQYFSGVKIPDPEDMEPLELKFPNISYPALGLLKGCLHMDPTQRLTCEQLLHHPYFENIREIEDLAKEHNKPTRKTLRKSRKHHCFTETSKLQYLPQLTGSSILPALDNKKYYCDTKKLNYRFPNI
Sequence of UniProt Q86UX6 (whole entry, looked up): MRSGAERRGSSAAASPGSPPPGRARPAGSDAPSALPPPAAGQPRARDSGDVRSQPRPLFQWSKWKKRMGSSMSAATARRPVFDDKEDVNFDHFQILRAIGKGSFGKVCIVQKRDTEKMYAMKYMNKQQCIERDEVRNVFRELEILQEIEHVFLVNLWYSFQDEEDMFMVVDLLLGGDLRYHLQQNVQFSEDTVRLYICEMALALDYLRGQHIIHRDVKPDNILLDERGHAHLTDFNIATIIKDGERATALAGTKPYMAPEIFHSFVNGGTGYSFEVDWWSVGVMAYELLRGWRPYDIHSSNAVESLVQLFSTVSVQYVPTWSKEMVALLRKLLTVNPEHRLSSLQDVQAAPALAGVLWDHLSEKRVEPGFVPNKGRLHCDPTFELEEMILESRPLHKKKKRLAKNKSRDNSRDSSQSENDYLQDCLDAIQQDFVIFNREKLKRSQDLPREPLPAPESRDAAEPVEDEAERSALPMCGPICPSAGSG
Sequence of UniProt Q9UKI8 (whole entry, looked up): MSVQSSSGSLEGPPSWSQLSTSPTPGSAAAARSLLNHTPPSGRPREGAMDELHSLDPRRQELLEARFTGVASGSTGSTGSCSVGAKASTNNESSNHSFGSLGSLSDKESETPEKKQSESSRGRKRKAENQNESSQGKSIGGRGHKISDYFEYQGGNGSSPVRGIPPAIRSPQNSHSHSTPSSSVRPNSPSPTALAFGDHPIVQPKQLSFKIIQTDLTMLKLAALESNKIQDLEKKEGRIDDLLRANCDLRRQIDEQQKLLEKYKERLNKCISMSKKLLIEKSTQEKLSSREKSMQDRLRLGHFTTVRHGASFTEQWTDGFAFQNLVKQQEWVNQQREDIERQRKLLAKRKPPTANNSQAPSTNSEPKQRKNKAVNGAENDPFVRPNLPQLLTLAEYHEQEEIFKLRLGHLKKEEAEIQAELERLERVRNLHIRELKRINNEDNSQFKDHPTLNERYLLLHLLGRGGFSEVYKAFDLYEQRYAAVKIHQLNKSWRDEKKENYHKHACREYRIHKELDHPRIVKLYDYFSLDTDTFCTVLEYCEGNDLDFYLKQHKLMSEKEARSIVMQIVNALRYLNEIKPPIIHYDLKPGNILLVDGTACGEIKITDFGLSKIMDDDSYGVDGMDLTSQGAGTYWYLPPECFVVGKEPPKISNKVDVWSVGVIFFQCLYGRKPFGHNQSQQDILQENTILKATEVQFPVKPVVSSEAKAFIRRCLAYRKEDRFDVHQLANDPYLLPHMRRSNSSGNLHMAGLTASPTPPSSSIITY
Sequence of UniProt P27448 (whole entry, looked up): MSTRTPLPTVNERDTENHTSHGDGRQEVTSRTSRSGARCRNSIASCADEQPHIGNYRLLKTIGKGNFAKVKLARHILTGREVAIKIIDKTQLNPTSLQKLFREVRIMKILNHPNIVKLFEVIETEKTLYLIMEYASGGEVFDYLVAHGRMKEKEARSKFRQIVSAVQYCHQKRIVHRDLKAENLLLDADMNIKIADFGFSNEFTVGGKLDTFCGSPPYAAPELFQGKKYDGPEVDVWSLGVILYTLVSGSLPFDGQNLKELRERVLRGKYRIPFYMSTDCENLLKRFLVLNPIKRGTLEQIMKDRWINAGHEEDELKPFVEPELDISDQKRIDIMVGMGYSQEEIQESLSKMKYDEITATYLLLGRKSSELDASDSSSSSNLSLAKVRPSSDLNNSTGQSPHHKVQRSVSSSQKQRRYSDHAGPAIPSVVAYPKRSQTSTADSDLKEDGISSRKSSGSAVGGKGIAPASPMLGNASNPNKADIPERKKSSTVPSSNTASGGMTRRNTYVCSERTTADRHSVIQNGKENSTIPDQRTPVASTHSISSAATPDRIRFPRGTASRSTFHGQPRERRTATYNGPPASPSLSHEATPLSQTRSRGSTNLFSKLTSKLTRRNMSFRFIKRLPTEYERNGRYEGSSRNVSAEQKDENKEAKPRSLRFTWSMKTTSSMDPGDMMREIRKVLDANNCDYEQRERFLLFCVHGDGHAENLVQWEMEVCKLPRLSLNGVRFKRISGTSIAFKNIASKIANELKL
Sequence of UniProt O75914 (whole entry, looked up): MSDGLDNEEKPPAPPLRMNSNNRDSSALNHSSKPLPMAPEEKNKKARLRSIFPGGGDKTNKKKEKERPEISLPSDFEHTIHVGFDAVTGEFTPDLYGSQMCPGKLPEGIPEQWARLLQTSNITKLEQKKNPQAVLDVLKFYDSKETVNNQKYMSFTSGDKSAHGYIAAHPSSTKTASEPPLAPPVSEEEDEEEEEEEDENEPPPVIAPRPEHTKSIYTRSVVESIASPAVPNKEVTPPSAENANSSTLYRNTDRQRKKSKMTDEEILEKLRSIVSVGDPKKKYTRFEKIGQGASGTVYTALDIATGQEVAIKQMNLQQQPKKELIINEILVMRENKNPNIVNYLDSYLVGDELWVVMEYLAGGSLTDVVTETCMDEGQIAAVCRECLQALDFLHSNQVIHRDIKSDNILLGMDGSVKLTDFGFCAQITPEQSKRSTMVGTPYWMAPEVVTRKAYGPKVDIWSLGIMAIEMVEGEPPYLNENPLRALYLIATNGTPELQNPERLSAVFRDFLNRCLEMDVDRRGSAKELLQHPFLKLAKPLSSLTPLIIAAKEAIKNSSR
Sequence of UniProt P25911 (whole entry, looked up): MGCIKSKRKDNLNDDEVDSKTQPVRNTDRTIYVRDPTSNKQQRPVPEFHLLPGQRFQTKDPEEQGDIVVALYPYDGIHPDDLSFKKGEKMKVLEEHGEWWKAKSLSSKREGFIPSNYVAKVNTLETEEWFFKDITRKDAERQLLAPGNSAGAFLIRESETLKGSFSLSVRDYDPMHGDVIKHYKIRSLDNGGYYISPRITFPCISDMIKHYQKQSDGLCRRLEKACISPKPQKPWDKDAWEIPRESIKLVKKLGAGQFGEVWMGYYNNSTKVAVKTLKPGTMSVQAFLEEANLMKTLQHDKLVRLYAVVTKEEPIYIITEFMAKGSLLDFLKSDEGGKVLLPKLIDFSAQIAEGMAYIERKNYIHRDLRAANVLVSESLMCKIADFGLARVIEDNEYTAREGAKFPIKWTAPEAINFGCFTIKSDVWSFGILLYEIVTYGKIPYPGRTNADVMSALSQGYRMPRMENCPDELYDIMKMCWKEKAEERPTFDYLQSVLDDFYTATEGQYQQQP
Sequence of UniProt P09769 (whole entry, looked up): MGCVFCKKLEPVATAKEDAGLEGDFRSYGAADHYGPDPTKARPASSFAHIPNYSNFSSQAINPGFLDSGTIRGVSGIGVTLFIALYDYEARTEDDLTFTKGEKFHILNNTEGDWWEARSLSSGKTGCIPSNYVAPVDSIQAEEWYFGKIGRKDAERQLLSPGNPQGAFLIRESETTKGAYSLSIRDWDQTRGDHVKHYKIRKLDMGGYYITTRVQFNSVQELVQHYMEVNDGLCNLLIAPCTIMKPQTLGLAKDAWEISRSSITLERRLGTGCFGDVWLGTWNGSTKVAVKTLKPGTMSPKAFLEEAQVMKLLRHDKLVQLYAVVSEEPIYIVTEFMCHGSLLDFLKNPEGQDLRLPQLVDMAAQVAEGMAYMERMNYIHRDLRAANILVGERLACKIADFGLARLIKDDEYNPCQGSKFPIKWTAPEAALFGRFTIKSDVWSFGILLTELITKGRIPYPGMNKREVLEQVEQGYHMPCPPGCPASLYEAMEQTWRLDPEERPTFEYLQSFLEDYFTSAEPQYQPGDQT

Set 1
Compound: CO[C@@H](C)c1c(Nc2ccc([C@H](N(C)C(=O)C3CCS(=O)(=O)CC3)C(F)(F)F)cc2)cnc2cc(Cl)nn12
Effect on: cell-free assay
Method: competition with immobilised ligand
Tested at: 1 µM
target | remaining binding [%]
PAK3 (Homo sapiens, UniProt O75914) | 100
WEE2 (Homo sapiens, UniProt P0C1S8) | 88
STK17A (Homo sapiens, UniProt Q9UEE5) | 87
MARK3 (Homo sapiens, UniProt P27448) | 100
PRKACB (Homo sapiens, UniProt P22694) | 81
Tyrosine-protein kinase ABL1, phosphorylated (ABL1, Homo sapiens, UniProt P00519, F317L) | 89
RET (Homo sapiens, UniProt P07949, V804L) | 86
STK32C (Homo sapiens, UniProt Q86UX6) | 99
Tyrosine-protein kinase ABL1, non-phosphorylated (ABL1, Homo sapiens, UniProt P00519, Q252H) | 100
FGR (Homo sapiens, UniProt P09769) | 100
CDKL1 (Homo sapiens, UniProt Q00532) | 57
KDR (Homo sapiens, UniProt P35968) | 100
Mast/stem cell growth factor receptor Kit, autoinhibited (KIT, Homo sapiens, UniProt P10721) | 98
TLK1 (Homo sapiens, UniProt Q9UKI8) | 100

Set 2
Target: Mitogen-activated protein kinase kinase kinase 7 (MAP3K7, Homo sapiens, UniProt O43318)
Effect on: enzyme activity
Action: inhibitor
Tested at: 0.5 µM
Baseline: control
Target sequence (O43318 1-606): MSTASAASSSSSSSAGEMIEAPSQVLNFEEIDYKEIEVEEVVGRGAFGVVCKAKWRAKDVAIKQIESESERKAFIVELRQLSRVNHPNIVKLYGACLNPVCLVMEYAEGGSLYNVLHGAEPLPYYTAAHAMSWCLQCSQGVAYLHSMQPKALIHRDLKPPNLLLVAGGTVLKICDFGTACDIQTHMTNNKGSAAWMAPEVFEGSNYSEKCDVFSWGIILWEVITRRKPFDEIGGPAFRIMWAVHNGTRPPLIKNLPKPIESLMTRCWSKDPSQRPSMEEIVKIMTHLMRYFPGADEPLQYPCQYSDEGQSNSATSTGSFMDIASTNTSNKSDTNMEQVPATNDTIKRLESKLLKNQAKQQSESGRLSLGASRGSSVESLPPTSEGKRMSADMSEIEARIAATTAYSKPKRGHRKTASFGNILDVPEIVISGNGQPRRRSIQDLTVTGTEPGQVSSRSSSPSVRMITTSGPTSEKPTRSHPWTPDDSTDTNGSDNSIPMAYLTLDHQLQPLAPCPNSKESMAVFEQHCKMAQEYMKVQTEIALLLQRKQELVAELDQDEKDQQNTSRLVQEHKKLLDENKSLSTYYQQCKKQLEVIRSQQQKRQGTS
Structure (SMILES) | remaining activity [%]
Cc1ccc(NC2=CC(=O)c3sc(C)nc3C2=O)cc1 | 99.1
Nc1ncnc2c1cnn2-c1ccccc1 | 98.9
CC(C)(C)n1nc(Cc2cccc3ccccc23)c2c(N)ncnc21 | 99
CC(=O)c1ccc(N2CCOCC2)cc1O | 98.6
N#CC(=C(N)Sc1ccc(N)cc1)c1ccccc1C(F)(F)F | 93.5
O=S(=O)(NCCNC/C=C/c1ccc(Br)cc1)c1cccc2cnccc12 | 109
CCc1[nH]c(-c2ccc(OC)cc2)nc1-c1ccncc1 | 96.6
COc1ccc(S(=O)(=O)N(CCO)c2ccccc2CN(C)CC=Cc2ccc(Cl)cc2)cc1 | 94.7
Fc1ccc(-c2nc3n(c2-c2ccncc2)CCS3)cc1 | 92.2
Cc1cncc2cccc(S(=O)(=O)N3CCCN(C(=O)CN)C[C@@H]3C)c12 | 94.9
CC#CC(=O)Nc1cc2c(Nc3ccc(F)c(Cl)c3)ncnc2cn1 | 100
Oc1ccc(Nc2nc(-c3ccc(Cl)cc3)cs2)cc1 | 95.3
NC(=O)c1ccc(N(C(N)=O)c2c(F)cccc2F)nc1-c1ccc(F)cc1F | 105
Nc1nccc(-c2c(-c3ccc(F)cc3)ncn2C2CCNCC2)n1 | 96.9
O=C1Cc2c([nH]c3ccc([N+](=O)[O-])cc23)-c2ccccc2N1 | 67.5
CCCC(=O)Oc1ccc2[nH]c(C(=O)c3cc4ccccc4[nH]3)cc2c1 | 92.1
O=C1NC(=O)C(c2c[nH]c3ccccc23)=C1c1c[nH]c2ccccc12 | 97
Nc1nc(Nc2ccc(S(N)(=O)=O)cc2)nn1C(=O)c1c(F)cccc1F | 77.4
CC[n+]1c(/C=C/N(C)c2ccccc2)n(-c2ccccc2)c2ccc(-c3nc4ccccc4s3)cc21 | 98.8
COc1cc(Nc2c(C#N)cnc3cc(OCCCN4CCN(C)CC4)c(OC)cc23)c(Cl)cc1Cl | 28.3
Cc1cc(Nc2nc(-c3ccccc3)nc3ccccc23)n[nH]1 | 78.3
CSc1nc(-c2ccnc(N[C@@H](C)c3ccccc3)c2)c(-c2ccc(F)cc2)[nH]1 (racemic) | 90.5

Set 3
SMILES: COc1cc(C(=O)N2CCC(N3CCN(C)CC3)CC2)ccc1Nc1ncc2c(n1)N(C)c1ccccc1C(=O)N2C
tested on | assay | test system | setting | inhibition [%]
Dual specificity mitogen-activated protein kinase kinase 7 (Map2k7, Mus musculus, UniProt Q8CE90) | probe labelling, KiNativ, refers to: DVkPSNILLDER peptide, Lys2 site | brain tissue lysate (mouse) | 1 µM, added: ATP acyl-phosphate probe | -9.8
human PBMC | probe labeling, inhibitor, KiNativ profiling, refers to: DIkSQNIFLTK | cell lysate | 1 µM, LYS2 site, added: ATP acyl-phosphate probe | -2.9
CASK (mouse) | probe labelling, KiNativ ATP probe | mouse brain lysate | 0.1 µM, LYS1 labelled site | 23.9
human PBMC | probe labeling, inhibitor, KiNativ profiling, refers to: FYAVkVLQK | cell lysate | concentration not given, LYS1 site, added: ADP acyl-phosphate probe 0.1 µM | -12
Lyn (Mus musculus, UniProt P25911) | KiNativ profiling | mouse brain lysate | 1 µM, LYS1 site, added: ATP acyl phosphate probe | -2.6
NEK1 (mouse) | probe labelling, KiNativ, refers to: DIkSQNIFLTK peptide, LYS2 site | brain tissue lysate (mouse) | 0.1 µM, added: ADP acyl-phosphate probe | -11.5

Set 4
SMILES: O=C(c1cc(Cc2n[nH]c(=O)c3ccccc23)ccc1F)N1CCN(C(=O)C2CC2)CC1
Cell line: UWB1289
Effect on: cell growth or viability
Method: ATP luminescence
Time: 6 days
setting | viability
5 µM | 56.9%
2.5 µM | 68.8%
0.31 µM | 79.1%
0.63 µM | 80.1%

Excerpt of the above (set 2):
Structure (SMILES) | remaining activity [%]
N#CC(=C(N)Sc1ccc(N)cc1)c1ccccc1C(F)(F)F | 93.5
O=S(=O)(NCCNC/C=C/c1ccc(Br)cc1)c1cccc2cnccc12 | 109
CCc1[nH]c(-c2ccc(OC)cc2)nc1-c1ccncc1 | 96.6
COc1ccc(S(=O)(=O)N(CCO)c2ccccc2CN(C)CC=Cc2ccc(Cl)cc2)cc1 | 94.7
Fc1ccc(-c2nc3n(c2-c2ccncc2)CCS3)cc1 | 92.2
Cc1cncc2cccc(S(=O)(=O)N3CCCN(C(=O)CN)C[C@@H]3C)c12 | 94.9
CC#CC(=O)Nc1cc2c(Nc3ccc(F)c(Cl)c3)ncnc2cn1 | 100
